Assay results gathered from unrelated publications.
Each line is one published result; not all experiments were run side by side.
U2AF2: U2AF2 148-342 (Homo sapiens, UniProt P26368)
UniProt P26368, sequence (whole entry, looked up): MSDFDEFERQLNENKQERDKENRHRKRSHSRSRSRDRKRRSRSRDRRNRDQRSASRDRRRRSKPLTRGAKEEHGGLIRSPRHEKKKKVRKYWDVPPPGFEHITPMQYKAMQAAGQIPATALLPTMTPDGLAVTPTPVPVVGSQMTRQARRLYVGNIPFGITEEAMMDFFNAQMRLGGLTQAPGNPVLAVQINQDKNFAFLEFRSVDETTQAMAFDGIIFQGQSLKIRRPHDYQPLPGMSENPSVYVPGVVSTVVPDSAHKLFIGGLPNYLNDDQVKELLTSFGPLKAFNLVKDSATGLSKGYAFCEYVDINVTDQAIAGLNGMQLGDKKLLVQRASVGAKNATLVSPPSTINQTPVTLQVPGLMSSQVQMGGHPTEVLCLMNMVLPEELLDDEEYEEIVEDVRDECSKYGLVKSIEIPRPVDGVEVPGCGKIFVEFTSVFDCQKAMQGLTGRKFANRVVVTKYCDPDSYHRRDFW
B1: Arginase 2-364 (Schistosoma mansoni, UniProt Q6WVP6); sequence looked up; chain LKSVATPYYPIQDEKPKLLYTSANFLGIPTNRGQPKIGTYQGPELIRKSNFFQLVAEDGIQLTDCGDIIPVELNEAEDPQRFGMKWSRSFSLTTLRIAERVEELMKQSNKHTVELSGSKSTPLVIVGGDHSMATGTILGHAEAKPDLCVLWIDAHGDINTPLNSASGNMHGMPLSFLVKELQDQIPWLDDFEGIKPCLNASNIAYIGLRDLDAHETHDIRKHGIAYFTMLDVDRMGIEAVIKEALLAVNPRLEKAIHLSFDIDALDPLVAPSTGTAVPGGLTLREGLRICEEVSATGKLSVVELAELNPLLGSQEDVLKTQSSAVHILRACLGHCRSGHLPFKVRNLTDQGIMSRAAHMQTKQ
B2: EIF4E2/GIGYF2 52-234 / 35-105 (Homo sapiens); chain 1 AEHPLQYNYTFWYSRRTPGRPTSSQSYEQNIKQIGTFASVEQFWRFYSHMVRPGDLTGHSDFHLFKEGIKPMWEDDANKNGGKWIIRLRKGLASRCWENLILAMLGEQFMVGEEICGAVVSVRFQEDIISIWNKTASDQATTARIRDTLRRVLNLPPNTIMEYKTHTDSIKMPGRLGPQRLLF; chain 2 KYKLADYRYGREEMLALFLKDNKIPSDLLDKEFLPILQEEPLPPLALVPFTEEEQRNFSMSVNSAAVLRLT
B3: lacI 1-360 N125A (Escherichia coli, UniProt P03023); chain MKPVTLYDVAEYAGVSYQTVSRVVNQASHVSAKTREKVEAAMAELNYIPNRVAQQLAGKQSLLIGVATSSLALHAPSQIVAAIKSRADQLGASVVVSMVERSGVEACKAAVHNLLAQRVSGLIIAYPLDDQDAIAVEAACTNVPALFLDVSDQTPINSIIFSHEDGTRLGVEHLVALGHQQIALLAGPLSSVSARLRLAGWHKYLTRNQIQPIAEREGDWSAMSGFQQTMQMLNEGIVPTAMLVANDQMALGAMRAITESGLRVGADISVVGYDDTEDSSCYIPPLTTIKQDFRLLGQTSVDRLLQLSQGQAVKGNQLLPVSLVKRKTTLAPNTQTASPRALADSLMQLARQVSRLESGQ
B4: cfbA 1-143 S11F (Methanocaldococcus jannaschii, UniProt Q58380); chain MEALVLVGHGFRLPYSKELLVKLAEKVKERNLFPIVEIGLMEFSEPTIPQAVKKAIEQGAKRIIVVPVFLAHGIHTTRDIPRLLGLIEDNHEHHHEHSHHHHHHHHHEHEKLEIPEDVEIIYREPIGADDRIVDIIIDRAFGR
B5: Sting1 138-378 (Mus musculus, UniProt Q3TBT3); sequence looked up; chain LTPAEVSAVCEEKKLNVAHGLAWSYYIGYLRLILPGLQARIRMFNQLHNNMLSGAGSRRLYILFPLDCGVPDNLSVVDPNIRFRDMLPQQNIDRAGIKNRVYSNSVYEILENGQPAGVCILEYATPLQTLFAMSQDAKAGFSREDRLEQAKLFCRTLEEILEDVPESRNNCRLIVYQEPTDGNSFSLSQEVLRHIRQEEKEEVTMNAPMTSVAPPPSVLSQEPRLLISGMDQPLPLRTDLI
B6: MB 2-154 G80A/H81A/H82A (Equus caballus, UniProt P68082); chain GLSDGEWQQVLNVWGKVEADIAGHGQEVLIRLFTGHPETLEKFDKFKHLKTEAEMKASEDLKKHGTVVLTALGGILKKKAAAEAELKPLAQSHATKHKIPIKYLEFISDAIIHVLHSKHPGDFGADAQGAMTKALELFRNDIAAKYKELGFQG
B7: Pld3 63-488 (Mus musculus, UniProt O35405); sequence looked up; chain GDLHLFGPNQRPAPCYDPCEAVLVESIPEGLEFPNATTSNPSTSQAWLGLLAGAHSSLDIASFYWTLTNNDTHTQEPSAQQGEEVLQQLQALAPRGVKVRIAVSKPNGPLADLQSLLQSGAQVRMVDMQKLTHGVLHTKFWVVDQTHFYLGSANMDWRSLTQVKELGVVMYNCSCLARDLTKIFEAYWFLGQAGSSIPSTWPRSFDTRYNQETPMEICLNGTPALAYLASAPPPLCPSGRTPDLKALLNVVDSARSFIYIAVMNYLPTMEFSHPRRFWPAIDDGLRRAAYERGVKVRLLISCWGHSDPSMRSFLLSLAALHDNHTHSDIQVKLFVVPTDESQARIPYARVNHNKYMVTERASYIGTSNWSGSYFTETAGTSLLVTQNGHGGLRSQLEAVFLRDWESPYSHDLDTSANSVGNACRLL
B8: ADAR 127-1226 (Homo sapiens, UniProt P55265-1); sequence looked up; chain SSHFQELSIYQDQEQRILKFLEELGEGKATTAHDLSGKLGTPKKEINRVLYSLAKKGKLQKEAGTPPLWKIAVSTQAWNQHSGVVRPDGHSQGAPNSDPSLEPEDRNSTSVSEDLLEPFIAVSAQAWNQHSGVVRPDSHSQGSPNSDPGLEPEDSNSTSALEDPLEFLDMAEIKEKICDYLFNVSDSSALNLAKNIGLTKARDINAVLIDMERQGDVYRQGTTPPIWHLTDKKRERMQIKRNTNSVPETAPAAIPETKRNAEFLTCNIPTSNASNNMVTTEKVENGQEPVIKLENRQEARPEPARLKPPVHYNGPSKAGYVDFENGQWATDDIPDDLNSIRAAPGEFRAIMEMPSFYSHGLPRCSPYKKLTECQLKNPISGLLEYAQFASQTCEFNMIEQSGPPHEPRFKFQVVINGREFPPAEAGSKKVAKQDAAMKAMTILLEEAKAKDSGKSEESSHYSTEKESEKTAESQTPTPSATSFFSGKSPVTTLLECMHKLGNSCEFRLLSKEGPAHEPKFQYCVAVGAQTFPSVSAPSKKVAKQMAAEEAMKALHGEATNSMASDNQPEGMISESLDNLESMMPNKVRKIGELVRYLNTNPVGGLLEYARSHGFAAEFKLVDQSGPPHEPKFVYQAKVGGRWFPAVCAHSKKQGKQEAADAALRVLIGENEKAERMGFTEVTPVTGASLRRTMLLLSRSPEAQPKTLPLTGSTFHDQIAMLSHRCFNTLTNSFQPSLLGRKILAAIIMKKDSEDMGVVVSLGTGNRCVKGDSLSLKGETVNDCHAEIISRRGFIRFLYSELMKYNSQTAKDSIFEPAKGGEKLQIKKTVSFHLYISTAPCGDGALFDKSCSDRAMESTESRHYPVFENPKQGKLRTKVENGEGTIPVESSDIVPTWDGIRLGERLRTMSCSDKILRWNVLGLQGALLTHFLQPIYLKSVTLGYLFSQGHLTRAICCRVTRDGSAFEDGLRHPFIVNHPKVGRVSIYDSKRQSGKTKETSVNWCLADGYDLEILDGTRGTVDGPRNELSRVSKKNIFLLFKKLCSFRYRRDLLRLSYGEAKKAARDYETAKNYFKKGLKDMGYGNWISKPQEEKNFYLCPV
B9: Streptavidin N23A/S27D/S45A (Streptomyces avidinii, UniProt P22629); sequence looked up; chain DPSKDSKAQVSAAEAGITGTWYAQLGDTFIVTAGADGALTGTYEAAVGNAESRYVLTGRYDSAPATDGSGTALGWTVAWKNNYRNAHSATTWSGQYVGGAEARINTQWLLTSGTTEANAWKSTLVGHDTFTKVKPSAASIDAAKKAGVNNGNPLDAVQQ
B10: dlg1 1-97 A8T (Drosophila melanogaster, UniProt P31007); sequence looked up; chain MPVKKQETHRALELLEDYHARLSEPQDRALRIAIERVIRIFKSRLFQALLDIQEFYELTLLDDSKSIQQKTAETLQIATKWEKDGQAVKIADFIKSS
B11: GET3 reduced (Saccharomyces cerevisiae, UniProt Q12154); sequence looked up; chain MDLTVEPNLHSLITSTTHKWIFVGGKGGVGKTTSSCSIAIQMALSQPNKQFLLISTDPAHNLSDAFGEKFGKDARKVTGMNNLSCMEIDPSAALKDMNDMAVSRANNNGSDGQGDDLGSLLQGGALADLTGSIPGIDEALSFMEVMKHIKRQEQGEGETFDTVIFDTAPTGHTLRFLQLPNTLSKLLEKFGEITNKLGPMLNSFMGAGNVDISGKLNELKANVETIRQQFTDPDLTTFVCVCISEFLSLYETERLIQELISYDMDVNSIIVNQLLFAENDQEHNCKRCQARWKMQKKYLDQIDELYEDFHVVKMPLCAGEIRGLNNLTKFSQFLNKEYNPITDGKVIYELEDKE
B12: HSPD1 mature V72I (Homo sapiens, UniProt P10809); sequence looked up; chain AKDVKFGADARALMLQGVDLLADAVAVTMGPKGRTVIIEQSWGSPKVTKDGVTVAKSIDLKDKYKNIGAKLIQDVANNTNEEAGDGTTTATVLARSIAKEGFEKISKGANPVEIRRGVMLAVDAVIAELKKQSKPVTTPEEIAQVATISANGDKEIGNIISDAMKKVGRKGVITVKDGKTLNDELEIIEGMKFDRGYISPYFINTSKGQKCEFQDAYVLLSEKKISSIQSIVPALEIANAHRKPLVIIAEDVDGEALSTLVLNRLKVGLQVVAVKAPGFGDNRKNQLKDMAIATGGAVFGEEGLTLNLEDVQPHDLGKVGEVIVTKDDAMLLKGKGDKAQIEKRIQEIIEQLDVTTSEYEKEKLNERLAKLSDGVAVLKVGGTSDVEVNEKKDRVTDALNATRAAVEEGIVLGGGCALLRCIPALDSLTPANEDQKIGIEIIKRTLKIPAMTIAKNAGVEGSLIVEKIMQSSSEVGYDAMAGDFVNMVEKGIIDPTKVVRTALLDAAGVASLLTTAEVVVTEIPKEEKDPGMGAMGGMGGGMGGGMF
B13: tebp-2 (Caenorhabditis elegans, UniProt Q22429); sequence looked up; chain MSTRAKKNKPSEPSFDDELLIWEFIYENTCNMQLFDDVNLDLFKQYLQEHESVFTAEQLYEFYVTRMKATLYKCELEPRKMLTLYKNLEIEMNQHVETLLEARFKTVLRVDSNRCLQKFSEFSAPETIPETLEETVPATAPEPERSRKLVNRMPLDVEISDSFEKLIWNHVYLNADRLTGKIVMAEEFWDQLLQSQPNIPIKSAYIVLHHFNIKMLENLWKQPMDPYAKARLIRDLAVPLSLRQRKWMLDNDRLNLKLSLNGFVEDWDIVP
B14: RBKS D27A (Homo sapiens, UniProt Q9H477); sequence looked up; chain MAASGEPQRQWQEEVAAVVVVGSCMTALVSLTSRLPKTGETIHGHKFFIGFGGKGANQCVQAARLGAMTSMVCKVGKDSFGNDYIENLKQNDISTEFTYQTKDAATGTASIIVNNEGQNIIVIVAGANLLLNTEDLRAAANVISRAKVMVCQLEITPATSLEALTMARRSGVKTLFNPAPAIADLDPQFYTLSDVFCCNESEAEILTGLTVGSAADAGEAALVLLKRGCQVVIITLGAEGCVVLSQTEPEPKHIPTEKVKAVDTTGAGDSFVGALAFYLAYYPNLSLEDMLNRSNFIAAVSVQAAGTQSSYPYKKDLPLTLF
UniProt Q94A41, sequence (whole entry, looked up): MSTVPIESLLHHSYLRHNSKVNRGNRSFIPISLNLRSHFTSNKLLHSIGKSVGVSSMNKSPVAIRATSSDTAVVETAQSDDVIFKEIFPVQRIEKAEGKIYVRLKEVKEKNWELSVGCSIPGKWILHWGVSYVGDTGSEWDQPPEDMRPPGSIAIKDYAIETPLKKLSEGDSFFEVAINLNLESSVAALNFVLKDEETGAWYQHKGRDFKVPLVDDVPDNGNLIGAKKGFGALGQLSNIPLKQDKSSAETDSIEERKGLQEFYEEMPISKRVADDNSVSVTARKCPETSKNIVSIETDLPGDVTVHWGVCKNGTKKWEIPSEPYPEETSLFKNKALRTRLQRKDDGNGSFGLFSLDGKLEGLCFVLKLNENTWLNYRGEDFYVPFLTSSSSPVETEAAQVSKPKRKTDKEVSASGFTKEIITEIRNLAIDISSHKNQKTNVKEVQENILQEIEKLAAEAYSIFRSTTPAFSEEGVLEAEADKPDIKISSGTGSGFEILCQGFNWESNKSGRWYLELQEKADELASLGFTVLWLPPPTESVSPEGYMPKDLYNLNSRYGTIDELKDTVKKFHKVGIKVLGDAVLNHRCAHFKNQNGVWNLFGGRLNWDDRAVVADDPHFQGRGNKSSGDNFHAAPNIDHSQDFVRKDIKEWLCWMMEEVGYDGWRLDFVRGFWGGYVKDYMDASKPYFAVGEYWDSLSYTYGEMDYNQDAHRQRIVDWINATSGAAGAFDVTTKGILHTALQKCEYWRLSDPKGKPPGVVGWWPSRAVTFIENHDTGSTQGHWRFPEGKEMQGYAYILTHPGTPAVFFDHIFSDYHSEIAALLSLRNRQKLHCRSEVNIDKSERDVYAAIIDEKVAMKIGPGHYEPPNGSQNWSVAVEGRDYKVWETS
UniProt Q99571, sequence (whole entry, looked up): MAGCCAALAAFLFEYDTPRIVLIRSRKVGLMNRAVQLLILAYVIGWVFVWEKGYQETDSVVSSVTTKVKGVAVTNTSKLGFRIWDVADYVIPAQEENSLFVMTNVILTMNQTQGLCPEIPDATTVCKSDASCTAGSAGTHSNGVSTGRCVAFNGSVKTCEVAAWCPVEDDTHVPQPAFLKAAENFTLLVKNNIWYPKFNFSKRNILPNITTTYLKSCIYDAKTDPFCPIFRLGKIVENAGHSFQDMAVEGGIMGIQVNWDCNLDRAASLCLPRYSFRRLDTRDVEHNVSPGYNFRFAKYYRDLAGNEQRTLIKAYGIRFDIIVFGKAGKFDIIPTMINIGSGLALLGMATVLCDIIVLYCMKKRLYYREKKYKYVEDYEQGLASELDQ
UniProt P00330, sequence (whole entry, looked up): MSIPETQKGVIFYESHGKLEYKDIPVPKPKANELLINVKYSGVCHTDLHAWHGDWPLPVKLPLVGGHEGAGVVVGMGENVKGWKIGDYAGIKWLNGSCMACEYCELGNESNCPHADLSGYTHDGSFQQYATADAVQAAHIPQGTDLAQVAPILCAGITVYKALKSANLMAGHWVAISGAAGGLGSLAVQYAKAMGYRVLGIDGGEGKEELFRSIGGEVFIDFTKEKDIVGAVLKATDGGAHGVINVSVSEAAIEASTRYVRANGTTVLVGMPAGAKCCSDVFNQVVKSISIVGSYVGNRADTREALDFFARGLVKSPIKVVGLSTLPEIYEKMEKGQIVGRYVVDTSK

`B1 (Arginase 2-364)` — result for “subunits per oligomer”: 6 (itself; SEC).
`CUCAUUUUU (ssRNA)` has a Kd of 2.56 µM (U2AF2; sequencing of bound RNA; RNA; motif only).
`B2 (EIF4E2/GIGYF2 52-234 / 35-105)` — result for “subunits per oligomer”: 2 (itself; SAXS).
`ADH1 mature, N-terminal acetylation (UniProt P00330)` — result for “subunits per oligomer”: 4 (itself; native MS).
For `B3 (lacI 1-360 N125A)`, “subunits per oligomer” read 4 (itself; SEC).
For `B4 (cfbA 1-143 S11F)`, “subunits per oligomer” read 2 (itself; SEC).
For `B5 (Sting1 138-378)`, “subunits per oligomer” read 2 (itself; SEC).
`CUUUAUUUU (ssRNA)` gave a Kd of 7.32 µM (U2AF2; sequencing of bound RNA; RNA; motif only).
Under “subunits per oligomer”, `B6 (MB 2-154 G80A/H81A/H82A)` is recorded as 2 (itself; SEC-MALS; apo).
For `P2RX4 (Homo sapiens, UniProt Q99571)`, “subunits per oligomer” read 3 (itself; cryo-EM).
Under “subunits per oligomer”, `B7 (Pld3 63-488)` is recorded as 2 (itself; X-ray crystallography).
`B8 (ADAR 127-1226)`: “subunits per oligomer” 2 (itself; SEC).
`B9 (Streptavidin N23A/S27D/S45A)` — result for “subunits per oligomer”: 4 subunits (itself; co-refolding, SDS-PAGE).
`B10 (dlg1 1-97 A8T)`: “subunits per oligomer” 2 (itself; SEC).
Under “subunits per oligomer”, `AMY3 mature (Arabidopsis thaliana, UniProt Q94A41)` is recorded as 2 (itself; SEC-MALS).
Under “subunits per oligomer”, `B11 (GET3 reduced)` is recorded as 2 (itself; SEC).
`B12 (HSPD1 mature V72I)` — result for “subunits per oligomer”: 7 (itself; cryo-EM).
`B13 (tebp-2)`: “subunits per oligomer” 2 (itself; SEC-MALS).
For `B14 (RBKS D27A)`, “subunits per oligomer” read 2 (itself; mass photometry).

Repeated from above:
Under “subunits per oligomer”, `B11 (GET3 reduced)` is recorded as 2 (itself; SEC).
`B12 (HSPD1 mature V72I)` — result for “subunits per oligomer”: 7 (itself; cryo-EM).
